Measurements of several laboratories.
Compare with care: the assays were run in different laboratories. Values after ≈ are worked out from the molar mass of the structure shown.
4'-phosphopantetheinyl transferase PptT: 4'-phosphopantetheinyl transferase PptT (Mycobacterium tuberculosis, UniProt O33336)
UniProt O33336, sequence (whole entry, looked up): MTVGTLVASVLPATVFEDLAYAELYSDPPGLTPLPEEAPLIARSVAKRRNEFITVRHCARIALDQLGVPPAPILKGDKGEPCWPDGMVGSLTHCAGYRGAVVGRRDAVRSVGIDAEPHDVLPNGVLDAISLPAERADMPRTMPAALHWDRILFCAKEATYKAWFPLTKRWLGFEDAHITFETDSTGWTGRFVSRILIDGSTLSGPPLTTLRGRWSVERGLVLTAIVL
UniProt P42336, sequence (whole entry, unmodified, looked up): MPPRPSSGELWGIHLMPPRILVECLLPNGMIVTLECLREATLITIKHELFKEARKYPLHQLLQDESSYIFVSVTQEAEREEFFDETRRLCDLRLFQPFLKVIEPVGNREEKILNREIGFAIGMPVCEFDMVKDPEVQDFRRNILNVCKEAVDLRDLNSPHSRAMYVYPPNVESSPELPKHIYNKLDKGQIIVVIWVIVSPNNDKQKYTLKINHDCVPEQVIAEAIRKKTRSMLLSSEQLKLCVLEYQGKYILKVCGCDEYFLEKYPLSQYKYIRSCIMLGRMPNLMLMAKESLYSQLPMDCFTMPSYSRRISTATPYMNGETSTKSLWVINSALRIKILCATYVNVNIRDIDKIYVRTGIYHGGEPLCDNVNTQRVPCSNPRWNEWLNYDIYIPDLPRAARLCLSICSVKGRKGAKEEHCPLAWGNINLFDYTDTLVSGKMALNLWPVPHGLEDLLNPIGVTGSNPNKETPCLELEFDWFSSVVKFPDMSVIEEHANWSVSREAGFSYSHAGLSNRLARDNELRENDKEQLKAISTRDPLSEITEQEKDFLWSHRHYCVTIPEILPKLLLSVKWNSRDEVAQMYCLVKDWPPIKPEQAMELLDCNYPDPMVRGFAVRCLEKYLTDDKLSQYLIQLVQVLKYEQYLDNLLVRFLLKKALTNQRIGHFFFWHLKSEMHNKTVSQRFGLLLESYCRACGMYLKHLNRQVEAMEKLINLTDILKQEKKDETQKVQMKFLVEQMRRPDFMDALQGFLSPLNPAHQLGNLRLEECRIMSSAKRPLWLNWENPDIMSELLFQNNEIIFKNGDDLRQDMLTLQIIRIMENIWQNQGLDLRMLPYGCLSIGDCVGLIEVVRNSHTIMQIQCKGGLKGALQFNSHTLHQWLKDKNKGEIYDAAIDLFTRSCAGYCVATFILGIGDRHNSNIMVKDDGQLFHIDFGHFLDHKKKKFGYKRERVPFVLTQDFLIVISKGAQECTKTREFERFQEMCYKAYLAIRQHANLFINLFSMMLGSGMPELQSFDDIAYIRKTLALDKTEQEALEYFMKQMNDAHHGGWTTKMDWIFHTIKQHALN
UniProt Q96PY6, sequence (whole entry, looked up): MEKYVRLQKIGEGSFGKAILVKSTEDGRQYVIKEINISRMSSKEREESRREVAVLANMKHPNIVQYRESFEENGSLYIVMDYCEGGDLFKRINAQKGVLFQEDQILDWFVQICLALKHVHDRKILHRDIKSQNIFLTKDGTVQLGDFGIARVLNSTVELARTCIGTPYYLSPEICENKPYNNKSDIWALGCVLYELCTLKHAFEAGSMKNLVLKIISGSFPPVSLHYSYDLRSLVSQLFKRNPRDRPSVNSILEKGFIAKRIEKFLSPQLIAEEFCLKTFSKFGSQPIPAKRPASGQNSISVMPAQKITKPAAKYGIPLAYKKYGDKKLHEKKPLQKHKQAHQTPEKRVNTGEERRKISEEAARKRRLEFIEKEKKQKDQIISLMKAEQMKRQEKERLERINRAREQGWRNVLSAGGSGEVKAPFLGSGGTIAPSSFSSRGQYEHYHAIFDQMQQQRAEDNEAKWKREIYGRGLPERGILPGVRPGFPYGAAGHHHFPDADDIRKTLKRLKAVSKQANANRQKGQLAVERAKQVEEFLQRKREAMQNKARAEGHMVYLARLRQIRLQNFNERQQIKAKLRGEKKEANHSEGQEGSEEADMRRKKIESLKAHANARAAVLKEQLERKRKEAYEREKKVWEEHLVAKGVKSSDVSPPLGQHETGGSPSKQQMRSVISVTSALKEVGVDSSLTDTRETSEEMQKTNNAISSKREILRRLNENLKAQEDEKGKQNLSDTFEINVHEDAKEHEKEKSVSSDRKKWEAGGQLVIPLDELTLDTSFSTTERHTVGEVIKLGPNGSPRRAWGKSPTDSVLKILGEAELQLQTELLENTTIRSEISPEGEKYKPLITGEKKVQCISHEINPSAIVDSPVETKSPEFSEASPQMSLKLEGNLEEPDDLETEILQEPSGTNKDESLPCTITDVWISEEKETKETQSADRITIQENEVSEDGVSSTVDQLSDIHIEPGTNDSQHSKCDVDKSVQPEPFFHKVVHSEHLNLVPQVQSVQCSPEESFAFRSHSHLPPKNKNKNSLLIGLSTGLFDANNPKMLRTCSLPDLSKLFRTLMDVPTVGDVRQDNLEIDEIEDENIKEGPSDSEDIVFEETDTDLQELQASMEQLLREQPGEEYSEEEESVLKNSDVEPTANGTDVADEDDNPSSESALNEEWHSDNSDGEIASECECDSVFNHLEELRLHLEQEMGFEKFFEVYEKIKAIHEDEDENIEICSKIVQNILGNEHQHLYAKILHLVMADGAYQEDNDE
UniProt Q15835, sequence (whole entry, looked up): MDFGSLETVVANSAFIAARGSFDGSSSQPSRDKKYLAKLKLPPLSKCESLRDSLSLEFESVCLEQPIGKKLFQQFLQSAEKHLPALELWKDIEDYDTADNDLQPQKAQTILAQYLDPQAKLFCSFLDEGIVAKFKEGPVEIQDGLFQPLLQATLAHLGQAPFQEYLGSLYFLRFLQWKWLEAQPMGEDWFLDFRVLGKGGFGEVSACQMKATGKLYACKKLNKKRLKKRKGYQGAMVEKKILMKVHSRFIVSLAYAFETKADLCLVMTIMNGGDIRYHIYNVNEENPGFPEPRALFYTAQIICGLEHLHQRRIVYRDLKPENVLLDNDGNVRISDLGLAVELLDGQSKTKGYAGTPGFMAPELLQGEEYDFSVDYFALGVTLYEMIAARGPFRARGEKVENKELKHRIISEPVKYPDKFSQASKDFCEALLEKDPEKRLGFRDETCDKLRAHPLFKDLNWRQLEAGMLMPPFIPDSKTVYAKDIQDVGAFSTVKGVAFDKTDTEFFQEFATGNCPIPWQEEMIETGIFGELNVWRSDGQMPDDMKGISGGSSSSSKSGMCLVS
UniProt Q13188, sequence (whole entry, looked up): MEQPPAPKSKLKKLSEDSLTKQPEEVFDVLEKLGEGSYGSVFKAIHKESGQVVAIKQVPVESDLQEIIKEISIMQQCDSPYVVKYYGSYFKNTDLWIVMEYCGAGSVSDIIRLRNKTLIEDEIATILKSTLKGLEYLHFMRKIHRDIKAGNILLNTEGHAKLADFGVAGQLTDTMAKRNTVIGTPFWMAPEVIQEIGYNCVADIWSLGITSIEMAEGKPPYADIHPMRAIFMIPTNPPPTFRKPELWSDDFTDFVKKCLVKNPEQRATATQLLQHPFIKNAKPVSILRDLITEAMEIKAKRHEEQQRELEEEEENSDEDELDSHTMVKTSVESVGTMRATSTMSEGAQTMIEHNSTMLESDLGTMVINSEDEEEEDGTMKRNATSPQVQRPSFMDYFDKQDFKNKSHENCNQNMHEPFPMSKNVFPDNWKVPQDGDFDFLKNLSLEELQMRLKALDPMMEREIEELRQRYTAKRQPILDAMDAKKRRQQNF

SMILES = COc1ncccc1-c1cnn2ccc(N3CCN(C(=O)OC(C)C)CC3)nc12; tested on = Serine/threonine-protein kinase 3 (STK3, Homo sapiens, UniProt Q13188); assay = binding, competition with immobilised ligand; conditions = 1 µM; measurement = remaining binding; result = 62%
SMILES = CC(C)c1ccc2[nH]c(=S)n(Cc3cccnc3)c(=O)c2c1; tested on = 4'-phosphopantetheinyl transferase PptT; assay = enzyme activity, inhibitor, FP; measurement = IC50; result = 2.1 µM
SMILES = C#Cc1ccc2c(c1)C(c1ccccn1)=NCc1c(-c3cnco3)ncn1-2; test system = water; conditions = 24 h, 25 °C; measurement = solubility; result = 468 µg/mL
SMILES = COc1ccc([C@@]23Oc4cc(OC)cc(OC)c4[C@@]24N=C(C2CC2)N[C@@]4(O)[C@H](C(=O)N(C)OC)[C@H]3c2ccccc2)cc1; tested on = A549-ACE2; assay = cell growth or viability, ATP luminescence; conditions = 48 h; measurement = CC50; result = 0.2 µM
SMILES = N=c1c2c(-c3ccccc3)c(-c3ccccc3)n(Cc3ccccc3)c2ncn1[C@H]1CC[C@H](O)CC1; test system = male cynomolgus monkey, plasma; conditions = oral, 1 mg/kg, single dose; measurement = Cmax; result = 414 ng/mL
SMILES = CC[C@H](C)[C@H](NC(=O)/C=C/c1ccccc1)C(=O)N[C@@H](CC(C)C)C(=O)N[C@H](C=O)C[C@@H]1CCCNC1=O; tested on = A549; assay = cell growth or viability, MTT; conditions = 24 h; measurement = CC50; result = > 100 µM
SMILES = CN[C@@H]1C[C@H]2O[C@@](C)([C@@H]1OC)n1c3ccccc3c3c4c(c5c6ccccc6n2c5c31)C(=O)NC4; tested on = NCI-H1975; assay = cell growth or viability, MTT; conditions = 1.6 µg; measurement = viability; result = 55.7%
SMILES = Nc1ncc(-c2nc(N3CCOCC3)nc(N3CCOCC3)n2)c(C(F)F)n1; tested on = Rhodopsin kinase GRK1 (GRK1, Homo sapiens, UniProt Q15835); assay = binding, competition with immobilised ligand; conditions = 10 µM; measurement = remaining binding; result = 86%
SMILES = CC(C)C[C@H]1C(=O)N(C)[C@@H](CC(C)C)C(=O)N[C@H](Cc2ccc(O)cc2)C(=O)N2CCC[C@@H]2C(=O)N[C@H]([C@H](C)O)C(=O)NCC(=O)NCC(=O)N[C@@H](CO)C(=O)N[C@@H](C(C)C)C(=O)N[C@@H](C)C(=O)N[C@@H](C)C(=O)N[C@@H](Cc2ccccc2)C(=O)N1C; test system = aqueous buffer; conditions = 18 h, pH 7.4; measurement = solubility; result = 589 µM
SMILES = OC(c1ccc(F)cc1)C(F)(F)CCN1CCC(O)(c2ccc(Cl)cc2)CC1 (racemic); tested on = MDR1; test system = MDCK-MDR1; conditions = 2 h; measurement = Papp A→B; result = 9.4 ×10⁻⁶ cm/s
SMILES = CC(C)C[C@H](NC(=O)[C@H](Cc1ccccc1)NC(=O)[C@H](Cc1ccccc1)NC(=O)Cc1ccc(-c2ccccc2)cc1)C(=O)N[C@@H](CCCCN)C(=O)N[C@@H](CCCNC(=N)N)C(=O)N[C@H](C(=O)N[C@@H](Cc1c[nH]c2ccccc12)C(=O)N[C@@H](CCCCN)C(=O)N[C@@H](CCCNC(=N)N)C(=O)O)C(C)C; assay = metabolic stability; test system = rat, liver microsomes; conditions = 1 h; measurement = compound remaining; result = 12.6%
SMILES = CC(C)C[C@@H]1NC(=O)[C@H]([C@@H](C)O)NC(=O)[C@H](C(C)C)NC(=O)[C@H](CC(C)C)NC(=O)[C@@H](C(C)C)N(C)C(=O)[C@H]2CCCN2C(=O)[C@@H](N)CSSC[C@@H](C(=O)O)NC(=O)[C@H]2CCCN2C(=O)[C@H](Cc2ccccc2)NC1=O; test system = aqueous buffer; conditions = 18 h, pH 7.4; measurement = thermodynamic solubility; result = 695 µM (≈ 767 µg/mL)
SMILES = CC(C)C[C@H](NC(=O)[C@@H](NC(=O)CCc1ccccc1)C(C)C)C(=O)N[C@H](C=O)C[C@@H]1CCCNC1=O; tested on = A549; assay = cell growth or viability, MTT; conditions = 24 h; measurement = CC50; result = > 100 µM
SMILES = CCOC(=O)C1=C(CN2CCC[C@@H]2C(=O)Nc2ccc(B(O)O)cc2)NC(c2nccs2)=N[C@@H]1c1ccc(F)cc1Br; tested on = HepDES19; assay = cell growth or viability, MTS; conditions = 72 h; measurement = CC50; result = 42 µM
SMILES = CC[C@@H](C)[C@H]1NC(=O)[C@@H](Cc2ccc(O)cc2)NC(=O)[C@@H](CCCNC(=N)N)NC(=O)[C@@H](Cc2ccc(O)cc2)NC(=O)[C@H]([C@@H](C)CC)NC(=O)[C@H]([C@@H](C)CC)NC(=O)[C@H](C)NC(=O)[C@H](C(C)C)NC(=O)[C@H](C(C)C)NC(=O)CNC(=O)[C@H](C(C)C)NC1=O; test system = aqueous buffer; conditions = 18 h, pH 7.4; measurement = solubility; result = 240 µM
SMILES = [2H]c1c([2H])c([C@]2([2H])CCCN2C(=O)C(C)(C)Oc2ccc3cn[nH]c3c2)c([2H])c([2H])c1C([2H])([2H])[2H]; tested on = Serine/threonine-protein kinase Nek1 (NEK1, Homo sapiens, UniProt Q96PY6); assay = binding, competition with immobilised ligand; conditions = 1 µM; measurement = remaining binding; result = 93%
SMILES = CN(C)C(=O)OCc1cc2[nH]c(=S)n(Cc3cncnc3)c(=O)c2cc1Cl; tested on = 4'-phosphopantetheinyl transferase PptT; assay = enzyme activity, inhibitor, FP; measurement = IC50; result = 15.6 µM
SMILES = Cc1nn(C)cc1-c1nc2c(N3CCN(Cc4ccc(Cl)cc4)CC3)c(Cl)cnc2[nH]1; tested on = Phosphatidylinositol 4,5-bisphosphate 3-kinase catalytic subunit alpha isoform (PIK3CA, Homo sapiens, UniProt P42336, Q546K); assay = binding, competition with immobilised ligand; conditions = 1 µM; measurement = remaining binding; result = 76%

Some of these lines once more:
SMILES = CC[C@@H](C)[C@H]1NC(=O)[C@@H](Cc2ccc(O)cc2)NC(=O)[C@@H](CCCNC(=N)N)NC(=O)[C@@H](Cc2ccc(O)cc2)NC(=O)[C@H]([C@@H](C)CC)NC(=O)[C@H]([C@@H](C)CC)NC(=O)[C@H](C)NC(=O)[C@H](C(C)C)NC(=O)[C@H](C(C)C)NC(=O)CNC(=O)[C@H](C(C)C)NC1=O; test system = aqueous buffer; conditions = 18 h, pH 7.4; measurement = solubility; result = 240 µM
